Experimental data collected from several papers.
Each numbered part is a random draw from the data of one study; scales do not carry over between parts.

Block 1
Target: RNA binding protein fox-1 homolog 2, RRM domain, GST-SBP tag (RBFOX2, Homo sapiens, UniProt O43251-10, residues 100-194)
Technique: RNA Bind-n-Seq
Molecule type: RNA
Sample: in vitro
Concentration: 365 nM
Notes: natural RNA segment, single round, ends assumed
Baseline: no-protein control
Direction: higher = stronger binding
Quantity: RBNS enrichment (R)
Target sequence (chain): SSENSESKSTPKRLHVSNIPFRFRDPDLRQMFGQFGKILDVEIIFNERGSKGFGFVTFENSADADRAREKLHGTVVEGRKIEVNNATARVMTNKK
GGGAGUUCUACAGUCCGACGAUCCACGCUCACCCGCUUCAGUGCGGCUCUGUCCCUGCUGCCGCCUCCAGUCCUGAGGGAGGGGCUUGCCCCACCUUCUACAUUCCAAUUUUUAUAUCUUUGAAUUAUGUGAUUGGAAUUCUCGGGUGCCAA: 0.189
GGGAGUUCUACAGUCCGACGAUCGAGUAAUGCUGGCUCUGAACAAACUUUUGAAAACUUAGUUGACAGUGUUUUGAGUCAACUGAAAAAAAGCAUGACUUUUGGAAUCUCUGAAUGCCUUGGUUCUCAGUAUUUGGAAUUCUCGGGUGCCAA: 17.4
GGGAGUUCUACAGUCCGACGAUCGCUGAGGGAGCCUGGCCCCAUGGUCAGCCCUAGGGUGGAGAGCCACCAAGAGGGACGCCUGGGGGUGCCAGGACCAGUCAACCUGGGCAAAGCCUAGUGAAGGCUUCUCUUGGAAUUCUCGGGUGCCAA: 0.269
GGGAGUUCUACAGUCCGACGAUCGAUAGGGAAGGGAUAAUCUGAGAAUUUUUAAAAGAUGAUUUAAUGAGAAGAAGCACAAUUUUGAUUUUGAUGAGUCACUUUCUGUAAACAAUCUUGGUCUAUCUUUACCCUGGAAUUCUCGGGUGCCAA: 0.561
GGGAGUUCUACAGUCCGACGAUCUUAAGAUAUUUUCUAAUGAUUUUAAUUUUAGAGAGUACCUUUUCAUUCUGUGUGUUACAGAGAAGUACUGAAAAGUUAAGGACACUUGGGGGCUACUUUUUUCCCUCUAAUGGAAUUCUCGGGUGCCAA: 0.354
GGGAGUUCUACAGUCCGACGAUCCCCAGAACUCUUUUGCUGGUCAGAGAUUCCCUGAGUGUCUGUCCUCACCCAAGCCUGCUCUGUGUCUGUGUUGUGAAGCUUGAGACUCUGGAAAGAAAUGGGGAGGGGGGUGGAAUUCUCGGGUGCCAA: 0.834
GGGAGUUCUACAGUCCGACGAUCAAUUGUUAUAACCACACCUUUUUGAAAUCUGCCCUACAAAAUUUGUUUGGCUUAAACGUCAAAGCCGUGACAAUUUGUUCUUUGAUGUGAUUGUAUUUCCAAUUUCUUGUUGGAAUUCUCGGGUGCCAA: 0.432
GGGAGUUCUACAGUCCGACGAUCUAUUCACAGACAAGAUUCAAGAAACCAUUUUUACGUGUGUACAUUCAAAUCUUCAUGAAUGGCAUCACUUGCUUUAGACCCAUUUUUUUUUUAUUGGUCAGAAAUAAAAUUGGAAUUCUCGGGUGCCAA: 0.672
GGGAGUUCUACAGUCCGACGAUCGAAGAGUGGUUGGUUGUAGAGCCCCCACCUUCAGAACUGCCUGGCCCAGCUGGAAACCCAGAGUCUGAGGGGGAAUCAGGUUCUGGAAGGCAAGCCAGAACUCCAGAGCUUGGAAUUCUCGGGUGCCAA: 0.506

Block 2
Target: Interferon regulatory factor 7, full length, phosphomimetic (IRF7, Homo sapiens, UniProt Q92985, residues 1-503, S471D/S472D/S475D/S476D/S477D/S483D/S484D/S487D)
Technique: protein-binding microarray
Molecule type: double-stranded DNA, one strand shown
Sample: in vitro
Concentration: 2200 nM top
Notes: 60-bp whole probe
Added: salmon DNA 0.4 mg/ml
Baseline: random background probes
Direction: higher = stronger binding
Quantity: fitted relative affinity
All sequences stand within: GCCTAGCAC … GTCTTGATTCGCTTGACGCTGCTG
Target sequence (chain): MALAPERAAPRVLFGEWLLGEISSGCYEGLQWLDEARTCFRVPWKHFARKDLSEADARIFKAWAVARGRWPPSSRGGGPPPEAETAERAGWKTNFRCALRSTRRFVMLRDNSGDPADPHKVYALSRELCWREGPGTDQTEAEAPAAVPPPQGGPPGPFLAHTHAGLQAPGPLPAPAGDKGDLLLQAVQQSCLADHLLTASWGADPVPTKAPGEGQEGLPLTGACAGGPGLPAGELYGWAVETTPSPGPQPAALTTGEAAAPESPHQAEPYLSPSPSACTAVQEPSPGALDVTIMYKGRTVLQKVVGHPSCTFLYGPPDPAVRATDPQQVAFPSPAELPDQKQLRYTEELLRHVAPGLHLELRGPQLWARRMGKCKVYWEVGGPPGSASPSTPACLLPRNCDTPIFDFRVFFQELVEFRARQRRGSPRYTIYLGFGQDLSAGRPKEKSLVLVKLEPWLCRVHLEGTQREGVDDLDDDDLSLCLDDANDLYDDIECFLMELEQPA
GACGGTATCGACTATCGGGTCGTGCTA: 0.116 z-score
TTAGGTATCGGTATCGGTTGGTGCTAG: 1.36 z-score
GACGGTTTCGGGTTTCGCGACGTGCTA: 8.82 z-score
TCAGTTCTCTTTTATTTACTGTGCTAG: 2.33 z-score
GTCGGACTGCTTATCCTGACGTGCTAG: 0.852 z-score
TTAGGTTTCGCACTGGGTTAGTGCTAG: 3.2 z-score
TTAGGTTTGCTTTCCCTTTAGTGCTAG: 4.79 z-score
TTAGGTCTCCTTGTCCTTTAGTGCTAG: 0.986 z-score
TAAAGCATTACTTTAGGTTCGTGCTAG: 0.793 z-score
TGAGGACTGGGTTTCGGTTAGTGCTAG: 3.38 z-score
TTAGGTTTCCGACTGCTTTAGTGCTAG: 1.26 z-score
GACGATATCAGACTGGACACGTGCTAG: 0.255 z-score
TCACATATACACATCTTACTGTGCTAG: 1.31 z-score
CCCGCTTTTTTTTTTTTTTTGTGCTAG: 1.69 z-score
TTGTGTTTTCATTTTATGACGTGCTAG: 4.77 z-score
TTCGGACTGGACACTGGGTTAGTGCTA: -0.272 z-score
GACGGACTGTACACTGGGGACGTGCTA: -0.318 z-score
TCAGGTCTCCTACTGCTTTAGTGCTAG: 0.925 z-score
TTAGGTATCAGTCTCGATTAGTGCTAG: 0.374 z-score
TTAGGTCTCCTTATCCGTTAGTGCTAG: 0.991 z-score
TAAGGAGGCAGGGATGCTCCGTGCTAG: -1 z-score
TCCAAATTGTCTCTGTCCCTGTGCTAG: 1.39 z-score
TCTGACCCCCTGCGCGGCAGGTGCTAG: -0.454 z-score
TCATGTCTGGATGTGCCACTGTGCTAG: 0.716 z-score

Block 3
Target: Protein C-ets-1 (ETS1, Homo sapiens, UniProt P14921, residues 1-441, Y397A, full length assumed)
Technique: protein-binding microarray
Molecule type: double-stranded DNA, one strand shown
Sample: in vitro
Concentration: not given
Notes: k-mer, scored over probes, only values ≥0.25
Direction: higher = stronger binding
Quantity: E-score
Residues (chain): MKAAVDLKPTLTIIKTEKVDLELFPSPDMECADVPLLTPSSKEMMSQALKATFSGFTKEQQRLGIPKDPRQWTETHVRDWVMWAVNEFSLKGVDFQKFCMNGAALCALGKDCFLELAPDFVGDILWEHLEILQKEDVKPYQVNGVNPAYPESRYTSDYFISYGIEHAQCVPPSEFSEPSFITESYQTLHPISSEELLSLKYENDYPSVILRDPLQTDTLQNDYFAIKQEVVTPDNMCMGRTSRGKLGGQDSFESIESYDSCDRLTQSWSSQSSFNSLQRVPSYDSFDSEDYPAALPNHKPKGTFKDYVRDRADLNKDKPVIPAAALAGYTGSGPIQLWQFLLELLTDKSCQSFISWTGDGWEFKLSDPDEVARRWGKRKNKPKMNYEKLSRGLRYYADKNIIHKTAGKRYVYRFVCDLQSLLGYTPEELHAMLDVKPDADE
CATGCATG: 0.342
GTGTCAAA: 0.279
AGGGCGGG: 0.346
CGACGGAC: 0.274
ACTTACAA: 0.318
ACCCCGCC: 0.407
GCAAAACC: 0.254
ACCCCACC: 0.311
GCAGACAA: 0.337
ACCGGAAG: 0.473
GCATTTCC: 0.314
ATGGCAAT: 0.291
CAAATCGG: 0.306
ATCCGGAA: 0.267
TACTACGA: 0.275
AATGGCAA: 0.285
TGACGTCA: 0.363
GTGCCAAA: 0.295
GCCCCGCC: 0.379
ACATAATG: 0.299

Block 4
Target: Ras GTPase-activating protein-binding protein 1, RRM domain (G3BP1, Homo sapiens, UniProt Q13283)
UniProt Q13283, sequence (whole entry, looked up): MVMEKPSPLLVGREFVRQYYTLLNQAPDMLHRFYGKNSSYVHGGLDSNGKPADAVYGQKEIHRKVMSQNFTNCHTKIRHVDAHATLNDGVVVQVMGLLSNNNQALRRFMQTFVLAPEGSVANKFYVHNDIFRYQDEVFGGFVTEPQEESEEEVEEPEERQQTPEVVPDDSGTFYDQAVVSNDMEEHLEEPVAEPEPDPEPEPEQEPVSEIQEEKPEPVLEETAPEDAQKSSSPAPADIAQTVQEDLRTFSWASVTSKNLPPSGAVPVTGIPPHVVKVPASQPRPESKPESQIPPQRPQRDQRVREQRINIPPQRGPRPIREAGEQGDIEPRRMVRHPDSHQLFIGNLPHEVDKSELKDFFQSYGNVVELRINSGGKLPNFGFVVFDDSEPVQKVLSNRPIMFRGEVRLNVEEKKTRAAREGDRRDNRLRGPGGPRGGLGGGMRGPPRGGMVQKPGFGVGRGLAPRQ
Technique: RNA Bind-n-Seq
Molecule type: RNA
Sample: in vitro
Concentration: 1 µM
Notes: whole 134-nt RNA, ends assumed
Added: 150 mM KCl
Baseline: input library
Direction: higher = stronger binding
Quantity: log2 enrichment
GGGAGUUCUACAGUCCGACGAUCCCUGUGCUACACAUCGUAUGUACCGAAUCGGCCCCCCGGGGCCCCCCGGGGCCCCCCGGGGAAAGUAUUAUGUUACGCCGUUCGGAUCUGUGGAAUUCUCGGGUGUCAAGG: -0.657
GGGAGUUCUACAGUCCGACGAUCGCAGCAAGUAAAAACAAAUGGAAAUGCUUCGGAUAGUGGCAGGGGUGGGGGUUGCUAAGGAAAGGGUGGGAUGGGAGUGGGUAAAGAGUUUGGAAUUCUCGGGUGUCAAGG: 1.19
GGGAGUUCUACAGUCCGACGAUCAGUCCUGUGCUACACAUCGUAUGUACCGAAUCGGAAAAAAAGGAAAAAAAGGUUUGGAAAGUAUUAUGUUACGCCGUUCGGAUCUGCACUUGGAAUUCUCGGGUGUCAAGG: -0.231
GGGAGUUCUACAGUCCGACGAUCCCCAUCAUGUUCAGAGGUGAGGUCCGUCUGAAUGUCGAAGAGAAGAAGACUCGAGCUGCCAGGGAAGGCGACCGACGAGAUAAUCGCCUUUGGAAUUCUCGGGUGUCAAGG: -0.303
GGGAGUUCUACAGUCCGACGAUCCUCAAGUCCUGUGCUACACAUCGUAUGUACCGAAUCGGGAGGGGAGGGGAGGGAAAGUAUUAUGUUACGCCGUUCGGAUCUGCACUUCCAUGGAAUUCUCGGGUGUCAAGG: 0.846
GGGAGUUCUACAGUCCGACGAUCUGGCCCUGGUGGCAUGCGGGGAGGAAGAUGUGGCCUCAUGGAUCGUGGUGGUCCCGGUGGAAUGUUCAGAGGUGGCCGUGGUGGAGACAGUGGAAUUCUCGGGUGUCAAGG: 0.822
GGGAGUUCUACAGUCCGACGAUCGCAGGAAGUAAAAACAAAUGGAAAUGCUUCGGAUAGUGGCAGGGGUGGGGGUUGCUAAGGAAAGGGUGGGAUGGGAGUAGGUAAAGAGUUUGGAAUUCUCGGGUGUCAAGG: 1.13
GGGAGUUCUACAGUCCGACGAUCGUCCUGUGCUACACAUCGUAUGUACCGAAUCGGGGAGGGGUUUUUUUGGGGAAAGGGGAAAGUAUUAUGUUACGCCGUUCGGAUCUGCACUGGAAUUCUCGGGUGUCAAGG: 1.04
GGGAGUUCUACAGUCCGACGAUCUGGGAGGUGGAUUUUGUUUUUUUUUUUAGCUCAUUUCCAGGGGUGGGAAUUUUUUUUUAAUAUGUGUCAUGAAUAAAGUUGUUUUUGAAAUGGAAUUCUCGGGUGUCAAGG: 1.09
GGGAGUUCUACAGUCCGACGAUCUUCCUCAAGUCCUGUGCUACACAUCGUAUGUACCGAAUCGGAGGUGGUGGAAAGUAUUAUGUUACGCCGUUCGGAUCUGCACUUCCAGCAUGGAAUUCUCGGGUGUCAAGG: -0.325

Some of these lines once more (block 2):
TTAGGTTTCCGACTGCTTTAGTGCTAG: 1.26 z-score
TCAGTTCTCTTTTATTTACTGTGCTAG: 2.33 z-score
TTAGGTATCAGTCTCGATTAGTGCTAG: 0.374 z-score
CCCGCTTTTTTTTTTTTTTTGTGCTAG: 1.69 z-score
TCAGGTCTCCTACTGCTTTAGTGCTAG: 0.925 z-score
TTAGGTATCGGTATCGGTTGGTGCTAG: 1.36 z-score
TTAGGTTTCGCACTGGGTTAGTGCTAG: 3.2 z-score
